Published values pooled from the literature.
Each numbered part is a random draw from the data of one study; scales do not carry over between parts. Changes are numbered by the printed parent chain.

Block 1
Target: CCNB1, cyclin fold, Cln2 fusion (human)
Technique: yeast growth competition, sequencing
Medium: yeast
Notes: strong parent motif
Baseline: not given
Reading: higher = stronger binding
Endpoint: normalised enrichment score
Starting sequence: MASTL docking peptide (human); PMIAKNLMCELDE; partner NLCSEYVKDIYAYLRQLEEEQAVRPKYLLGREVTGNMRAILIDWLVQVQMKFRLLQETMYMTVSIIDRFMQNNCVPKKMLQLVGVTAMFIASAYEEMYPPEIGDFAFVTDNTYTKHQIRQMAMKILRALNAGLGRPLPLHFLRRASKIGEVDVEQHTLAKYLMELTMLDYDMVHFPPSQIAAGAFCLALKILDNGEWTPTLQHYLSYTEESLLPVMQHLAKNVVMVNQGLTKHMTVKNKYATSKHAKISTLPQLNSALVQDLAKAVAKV
Variant = PMIAKNLMCDLDE [E10D]; value = 1.55
Variant = PMIAKNLMCEGDE [L11G]; value = 0.143
Variant = PTIAKNLMCELDE [M2T]; value = 2.28
Variant = PMIAKNLECELDE [M8E]; value = 1.01
Variant = PHIAKNLMCELDE [M2H]; value = 1.96
Variant = PWIAKNLMCELDE [M2W]; value = 1.69
Variant = PMIAKNLMHELDE [C9H]; value = 1.97

Block 2
Target: Fragile X messenger ribonucleoprotein 1, C-terminal low-complexity region (Fmr1, Mus musculus, UniProt P35922)
Technique: RNA Bind-n-Seq
Form: RNA
Medium: in vitro
Concentration: 200 nM
Notes: whole 134-nt RNA, ends assumed
Added: 150 mM LiCl
Baseline: input library
Reading: higher = stronger binding
Endpoint: log2 enrichment
All molecules: 7-deaza-guanosine replaces G
All sequences stand within: GGGAGUUCUACAGUCCGACGAUC … UGGAAUUCUCGGGUGUCAAGG
Strand = GUAGGAAGUAAAAACAAAUGGAAAUGCUUCGGAUAGUGGCAGGGGUGGGGGUUGCUAAGGAAAGGGUGGGAUGGGAGUGGGUAAAGAGUU; value = 1.98
Strand = UCCUGUGCUACACAUCGUAUGUACCGAAUCAAACCCAAAUUUUUUUAAACCCCCCCAAAAAAGUAUUAUGUUACGCCGUUCGGAUCUGCA; value = 1.95
Strand = CUGUGCUACACAUCGUAUGUACCGAAUCGGCCCCCCCGGGGCCCCCCCGGCCCCCCCGGGGAAAGUAUUAUGUUACGCCGUUCGGAUCUG; value = -1.28
Strand = UCAAGUCCUGUGCUACACAUCGUAUGUACCGAAUCGGGGAAGGGGAAGGAAGGGGAAAGUAUUAUGUUACGCCGUUCGGAUCUGCACUUC; value = -0.741
Strand = GUCCUGUGCUACACAUCGUAUGUACCGAAUCGGUUUUUUUGGUUUUUUUGGAAAAAGGAAAGUAUUAUGUUACGCCGUUCGGAUCUGCAC; value = -2.08

Block 3
Target: Interferon regulatory factor 7, full length, phosphomimetic (IRF7, Homo sapiens, UniProt Q92985, residues 1-503, S471D/S472D/S475D/S476D/S477D/S483D/S484D/S487D)
Technique: protein-binding microarray
Form: double-stranded DNA, one strand shown
Medium: in vitro
Concentration: 2200 nM top
Notes: 60-bp whole probe
Added: salmon DNA 0.4 mg/ml
Baseline: random background probes
Reading: higher = stronger binding
Endpoint: fitted relative affinity
All sequences stand within: GCCTAGCAC … GTCTTGATTCGCTTGACGCTGCTG
Construct (chain): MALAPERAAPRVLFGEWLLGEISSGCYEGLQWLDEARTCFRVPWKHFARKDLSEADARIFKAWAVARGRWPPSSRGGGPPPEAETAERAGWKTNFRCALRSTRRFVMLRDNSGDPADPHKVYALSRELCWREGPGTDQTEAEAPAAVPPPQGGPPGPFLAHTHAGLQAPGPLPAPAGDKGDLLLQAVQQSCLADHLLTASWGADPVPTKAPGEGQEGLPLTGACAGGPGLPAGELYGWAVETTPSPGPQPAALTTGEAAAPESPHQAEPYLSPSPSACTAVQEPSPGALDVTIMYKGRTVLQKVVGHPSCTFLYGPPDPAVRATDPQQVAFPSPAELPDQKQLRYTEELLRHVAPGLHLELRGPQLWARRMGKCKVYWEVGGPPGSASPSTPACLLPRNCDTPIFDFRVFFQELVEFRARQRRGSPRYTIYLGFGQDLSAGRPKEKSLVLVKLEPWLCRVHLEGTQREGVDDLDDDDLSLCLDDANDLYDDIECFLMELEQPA
Strand = TTAGATTTCAATTCCGATTAGTGCTAG; value = 0.773 z-score
Strand = TTAGGTTTCCTTTCCCATTAGTGCTAG; value = 4.24 z-score
Strand = GACGGTTTCGGGTTTCGGCACGTGCTA; value = 8.73 z-score
Strand = TTAGGTCTCGGTTTCGGCTAGTGCTAG; value = 3.37 z-score
Strand = ATTTTAATCACATATACACTGGTGCTA; value = 0.654 z-score

Further values, each from its own experiment
Substance = PhoQ, residues 284 288 289 292 302 303 TASMAF; target = PhoP, residues 12 14 15 18 19 FWNTL (Escherichia coli, UniProt P23836); test = Sort-seq, item: YFP reporter; test system = E. coli; setting = PhoQ-PhoP variant library, added: 10 µM Mg2+; how to read = baseline: high Mg2+ state, higher = stronger signaling; endpoint = fold induction; value = 14.3

Repeated from above (block 3):
Strand = TTAGGTTTCCTTTCCCATTAGTGCTAG; value = 4.24 z-score
